Results collected from several papers.
Each numbered part is a random draw from the data of one study; scales do not carry over between parts.

Series 1 — method: protein-binding microarray; form: double-stranded DNA, one strand shown; medium: in vitro; concentration: not given; direction: higher = stronger binding
Target: Protein C-ets-1 (ETS1, Homo sapiens, UniProt P14921, residues 1-441, K379A, full length assumed)
Notes: k-mer, scored over probes, only values ≥0.25
Construct (chain): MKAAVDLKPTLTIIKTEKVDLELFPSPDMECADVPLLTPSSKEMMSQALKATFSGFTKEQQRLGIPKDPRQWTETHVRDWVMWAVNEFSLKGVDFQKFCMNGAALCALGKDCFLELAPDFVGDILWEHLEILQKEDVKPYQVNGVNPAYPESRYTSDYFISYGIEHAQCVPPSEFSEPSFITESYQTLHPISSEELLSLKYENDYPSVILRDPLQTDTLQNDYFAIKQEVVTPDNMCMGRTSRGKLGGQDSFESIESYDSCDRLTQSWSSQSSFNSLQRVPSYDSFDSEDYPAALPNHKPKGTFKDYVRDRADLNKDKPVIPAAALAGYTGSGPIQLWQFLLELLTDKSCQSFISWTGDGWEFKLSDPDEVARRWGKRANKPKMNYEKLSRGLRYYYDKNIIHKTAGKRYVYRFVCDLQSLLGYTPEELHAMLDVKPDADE
| Strand | E-score |
| --- | --- |
| ATCTCCGG | 0.279 |
| ATTGTACA | 0.267 |
| GCCGACAC | 0.258 |
| CTGCCGGC | 0.266 |
| GAAATGAA | 0.293 |
| CACATAAA | 0.256 |
| ACCGCAAC | 0.318 |
| AATCCCGT | 0.273 |
| TAATACAA | 0.284 |
| CCGACAAC | 0.325 |
| ACATCGTA | 0.298 |
| CAGCCGGA | 0.3 |
| ATTCTACA | 0.26 |
| TAATGTAA | 0.26 |
| CGGTAAAA | 0.282 |
| ACAACACT | 0.252 |
| GGTTGTAC | 0.251 |
| CCCGCGCG | 0.258 |

Series 2 — method: RNA Bind-n-Seq; form: RNA; medium: in vitro; concentration: 365 nM; relative to: no-protein control; direction: higher = stronger binding
Target: RNA binding protein fox-1 homolog 2, RRM domain, GST-SBP tag (RBFOX2, Homo sapiens, UniProt O43251-10, residues 100-194)
Notes: natural RNA segment, single round, ends assumed
Constant ends, left off below: GGGAGUUCUACAGUCCGACGAUC … UGGAAUUCUCGGGUGCCAA
Target sequence (chain): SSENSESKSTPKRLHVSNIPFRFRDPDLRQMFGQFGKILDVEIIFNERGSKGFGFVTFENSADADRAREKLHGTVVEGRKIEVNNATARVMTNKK
| Strand | RBNS enrichment (R) |
| --- | --- |
| UCAGACCUUGCCAGACAACCGAGUCCUGCAGGAUUCUGACUCAGAAGAUAAUCACAGACGUUAGUUAGAGUGUAUUUAUUUUUUUAAGUUACAAUAAAGUGCUCAGUCCU | 0.33 |
| AACAAAGGGAAACAGAUAUUUGAUAUGAAAGCCAUAUGACAGUAGCUUGUGUCAUGGGGAAACAGUUUCUCCCUCUACUCACAACACUAAAGGGAAAAAGGUGGAUUCAG | 0.789 |
| UGAUUUUCCAAAACCACAGCUUCAGCAGCAACAAUCAGAAUGUCCAAAUGCUGUCCUUUCCCUUACAGAGAAGAACAAUGGUAACUAAAAGCUGCAUAUAACUAGCAAUA | 0.474 |
| CAGGAGAUGGUUAAUAAGAGUUGUUACUUCGAGGUGCCUACCUCCACCUUCAAAGUAACUCUUAGAAGAUGUGCUUGACUUGAUAGCUUACUUAAAUACACACUGCGAAG | 0.529 |
| CUGCCGCUACUUCACCUGAGGGCCGUGAGGAGAAGGUGGGCUGCGCCCCACAGAACUGGCAGCAGCUUCUCCACUGUCAUCAAACUGGCCAUGUCCUGGCCCCGUCUCCA | 0.412 |
| CUGUAAAUACUUUUUUGGAAAAUAGAAAUUUUUAUUGCUUUAAAGUUUUGGAUAUGGGUGGUUUUCUUUUCCGGGUUUGGUGGAAAGUAAUUUGAGAACUUUAAGGUUGU | 1.12 |
| CCAGAGAUGGUCAUGCACAGCCUCUUGAGACGCAUGUCACAAUGUCCUAUGACAGAGAAUGACUUAGAGCCACAGGCAUGAGUCCUUGAUAGGCAGGACUGAAAAACCAA | 2.09 |
| CCAAAGUACGGGUAAUUCAGCCUGCACAGUUUCCUUUCACUCAUAGUUUCACAAUUACGAGUGAAAAAUCAUGUAAUUAUCUGUAAAUAUGUAGCUAACAAAUUGACCUA | 3.62 |
| GAAGUAUUUAAAAUUAAUCACCUUAGCUCUACCAUAUACUAGAUCUGUGACCGCUACACAAAUUGUUUAUCAUCUUUGGGUCUCUAUUGCCUUCUUUAUAAAAUAAGUGU | 0.367 |
| UUCCUGUUUUAUGUCUGUACCUCGUCCACCCCUCAGGUAAUACCUGCCUCUCACAGGUACAGCUGUUUCUUGGAAAUCCUCCAACCAAAUAGCAGUUUUCCUAACUUGAU | 0.315 |
| GCCGAACUUCAGCCAUCAGAUCCUUCAAAGUGGAACUUUGGAUUGUUUUUACAGACAACAUCGAGUAAUGGCUUGUAAAUGUGAAUUUUGCCAGAGGUGGUUUUUGAACA | 0.373 |
| UUAUAGUUUUCUUCAAUGUAUUUUUAGUUACUUGGGUCACAAAUGUUCAAUUUCAGCAUAUUUUAGGGUGAGUAAUCAAAAAUGUGAAUUUGCCUUUGAUUUCCUACCAC | 0.782 |

Series 3 — method: RNAcompete; form: RNA; medium: in vitro; concentration: 20 nM; notes: 7-mer, probes averaged, single round; relative to: mean of 7-mers; direction: higher = stronger binding
Target: PABPC1L2, full length, GST fusion (mouse, UniProt A0ABA7IW68)
Residues (chain): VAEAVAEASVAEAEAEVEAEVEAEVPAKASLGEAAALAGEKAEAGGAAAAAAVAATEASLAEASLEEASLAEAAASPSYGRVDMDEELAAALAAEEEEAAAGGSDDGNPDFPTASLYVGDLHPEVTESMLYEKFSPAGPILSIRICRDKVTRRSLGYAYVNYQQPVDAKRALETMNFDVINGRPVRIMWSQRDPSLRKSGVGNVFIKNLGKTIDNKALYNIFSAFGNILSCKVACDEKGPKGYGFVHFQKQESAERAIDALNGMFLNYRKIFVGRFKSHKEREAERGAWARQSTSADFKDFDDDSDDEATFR
| Strand | 7-mer Z-score |
| --- | --- |
| GUACACG | -0.124 |
| CCCUGGA | -0.211 |
| GUUUCGC | -0.552 |
| CGUACAG | -0.19 |
| AGAAAAU | 3.85 |
| GCCGCGA | -0.151 |
| CCGGUCG | -0.112 |
| AAAUUAU | 1.08 |
| CAUCACC | -0.144 |
| CUGGGUU | -0.0754 |
| CAGUCAU | -0.327 |
| GUCUAUC | -0.335 |
| UACCUAA | -0.0772 |
| CCCAGGG | -0.237 |
| UGAAUAC | -0.0863 |
| UGGAAUC | -0.021 |
| UGAGGCC | 0.00436 |
| GUACUUA | -0.103 |
| GGCGAGG | 0.372 |
| GAUCAGG | -0.0518 |
| AUAGAGC | 0.0116 |
| CAACCUC | -0.246 |
| UUCGUUC | -0.46 |
| UGACACA | 0.0189 |
| UUUCCCG | -0.519 |

Series 4 — method: protein-binding microarray; form: double-stranded DNA, one strand shown; medium: in vitro; concentration: 2540 nM top; notes: 60-bp whole probe; added: salmon DNA 0.4 mg/ml; relative to: random background probes; direction: higher = stronger binding; constant ends, left off below: GCCTAGCAC … GTCTTGATTCGCTTGACGCTGCTG
Target: Interferon regulatory factor 3, full length, phosphomimetic (IRF3, Homo sapiens, UniProt Q14653, residues 1-427, S386D/S396D/S398D/S402D/T404D/S405D)
Residues (chain): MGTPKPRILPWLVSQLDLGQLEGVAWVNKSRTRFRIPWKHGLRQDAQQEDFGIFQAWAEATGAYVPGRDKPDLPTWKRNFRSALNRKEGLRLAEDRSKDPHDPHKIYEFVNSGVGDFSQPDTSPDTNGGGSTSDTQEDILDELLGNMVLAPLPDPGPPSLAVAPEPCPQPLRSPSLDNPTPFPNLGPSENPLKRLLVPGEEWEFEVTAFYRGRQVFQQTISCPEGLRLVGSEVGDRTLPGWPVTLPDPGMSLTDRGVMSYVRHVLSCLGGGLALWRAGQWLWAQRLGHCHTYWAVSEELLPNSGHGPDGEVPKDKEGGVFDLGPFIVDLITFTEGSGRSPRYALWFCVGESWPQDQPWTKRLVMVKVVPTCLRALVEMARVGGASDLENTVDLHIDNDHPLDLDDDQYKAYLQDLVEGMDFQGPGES
| Strand | fitted relative affinity [z-score] |
| --- | --- |
| GACGATATCGGGCCTGGAGACGTGCTA | -0.403 |
| GACGGTCTCGGTTTCGGTACGTGCTAG | 5.63 |
| CTAGGTCTCCTTATCCTTTAGTGCTAG | 2.74 |
| AGCAGGGCTGATGCTCCCCTGTGCTAG | -1.32 |
| TCAGATATGCGGTAAGGGACTGTGCTA | -0.0754 |
| TCATTTTTCACTATTGCACTGTGCTAG | 2.28 |
| GACAGACTGGACACTGGGGACGTGCTA | -0.533 |
| GACGGTTTCCTACTGCTGAAGTGCTAG | 5.38 |
| GACCGACTGGACTATCGGGACGTGCTA | -0.128 |
| TTACATATCGGGTATCGATTAGTGCTA | 0.898 |
| GACGGCCTGCTTTTCCTGACGTGCTAG | -0.493 |
| TTAGGTTTCGACTATCCGTTAGTGCTA | 2.71 |
| TCAACTTTCTCTGCTCTTTTCGTGCTA | 1.23 |
| GACGGTATCCTTCTCCTAACGTGCTAG | 6.8 |
| TCACCTTTCTCCATGGGACTGTGCTAG | 5.32 |
| GACGGTTTTGACACTGGGGACGTGCTA | 0.686 |
| TTGTGTCTGGGATTTTGTCCGTGCTAG | -0.807 |
| TTCCTTTACTTTCTTTTTTTGTGCTAG | 3.63 |
| TTAGGTTTCGGTTTCGGTAAGTGCTAG | 12.4 |
| GACGGTTTCGACTCTGGGGACGTGCTA | 4 |
| TCATCTCTGGGCTGTGGGACTGTGCTA | 0.265 |
| TTAGGTTTCTACTTTCGGTTAGTGCTA | 3.33 |
| TTGCTTCCCAATTCTCTTTTCGTGCTA | 2.16 |
| TTAGGACTACTTTTCCTTTAGTGCTAG | 1.72 |
| GACGGTATCGACCATCGGGACGTGCTA | 0.283 |

Series 5 — method: protein binding microarray; form: double-stranded DNA, one strand shown; medium: in vitro; concentration: not given; relative to: not given; direction: higher = stronger binding
Target: Histone acetyltransferase KAT6A, winged helix 1, GST fusion (KAT6A, Homo sapiens, UniProt Q92794, residues 1-85)
Notes: 8-mer, flanks averaged, mean of 2 arrays, mostly near background
Construct (chain): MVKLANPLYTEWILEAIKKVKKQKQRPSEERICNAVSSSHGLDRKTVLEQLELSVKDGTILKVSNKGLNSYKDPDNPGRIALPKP
| Strand | E-score |
| --- | --- |
| CCCGCGCG | 0.478 |
| AGGGAAAT | -0.242 |
| TGCGTTAA | 0.136 |
| CAGGCCGC | 0.285 |
| CATTGCGG | 0.246 |
| CAGTCGGA | 0.0101 |
| ATCACTGC | -0.0131 |
| CCCAGCAG | -0.245 |
| CCGCGGAA | 0.37 |
| AGTTAGGG | -0.177 |
| GCGGTATA | 0.266 |
| ATCTTAGG | -0.111 |
| GCTCGAGC | 0.163 |
| CAGTGTGC | -0.119 |
| CACTCACA | -0.131 |
| CGGAAGAA | 0.102 |
| AAGGCAGT | -0.155 |
| GTTGTCCA | -0.16 |
| GTTTAGTA | -0.0707 |
| CGGCCCTA | 0.209 |
| CGTGCCCC | 0.12 |
| AGCCTGTC | 0.0184 |

A few entries again (series 4):
| Strand | fitted relative affinity [z-score] |
| --- | --- |
| GACCGACTGGACTATCGGGACGTGCTA | -0.128 |
| TTGCTTCCCAATTCTCTTTTCGTGCTA | 2.16 |
| GACGGTTTTGACACTGGGGACGTGCTA | 0.686 |
| TTAGGTTTCTACTTTCGGTTAGTGCTA | 3.33 |
| GACGGTATCCTTCTCCTAACGTGCTAG | 6.8 |
| CTAGGTCTCCTTATCCTTTAGTGCTAG | 2.74 |
| TCATCTCTGGGCTGTGGGACTGTGCTA | 0.265 |
| TCATTTTTCACTATTGCACTGTGCTAG | 2.28 |
